Measured values pooled from the literature.
A part holds a random share of what one study measured. Substitutions count along the parent as printed.

Set 1 — method: RNA Bind-n-Seq; molecule type: RNA; matrix: in vitro; tested at: not given; reference: input RNA pool; direction: higher = stronger binding
Target: RING finger protein unkempt homolog, zinc fingers 1-6, GST-SBP tag (UNK, Homo sapiens, UniProt Q9C0B0, residues 30-357)
Setting: RNA with constant flanks, human and mouse sites, ends assumed
Construct (chain): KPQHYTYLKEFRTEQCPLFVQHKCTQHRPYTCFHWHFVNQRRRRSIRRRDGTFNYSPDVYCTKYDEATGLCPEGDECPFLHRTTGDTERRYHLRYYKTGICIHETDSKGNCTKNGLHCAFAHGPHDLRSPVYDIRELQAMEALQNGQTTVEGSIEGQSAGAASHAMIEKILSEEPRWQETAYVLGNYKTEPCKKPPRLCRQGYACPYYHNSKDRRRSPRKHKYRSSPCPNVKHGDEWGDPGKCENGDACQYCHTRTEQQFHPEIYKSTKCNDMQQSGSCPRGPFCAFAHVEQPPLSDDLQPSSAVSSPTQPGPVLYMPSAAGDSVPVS
The bound/input enrichment of `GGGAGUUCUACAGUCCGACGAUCUAUAAUUUCAUACAGGAUUCAAUGUUGGAUUUUGAAAAUCAGACGCUUGAUCCUGCCAUUGUAUCCGCACAGCCUAUGAACCCUACCCAGAACAUGGAUAUGCCUCAGCUGGUUUGCCCUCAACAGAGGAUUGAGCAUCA` is reported as 0.191 ratio.
With `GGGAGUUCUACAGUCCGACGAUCAUUCUGGCAGCUGUCCGGAAGGUCCUACAUAAGGACAAGUCACAAGAGAAUGCAGGCAUGUUCAAGAAUGGAGGCCUCCUUUUCCGAAUAGCCCUACUUACCAUUGGAGGCACCAGCAUGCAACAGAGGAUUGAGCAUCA` the bound/input enrichment was 0.345 ratio.
`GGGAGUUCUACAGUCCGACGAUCAAGACUGUCGACCUAAAGCCUGACUGGGGCAAGGGCUAUUCACGAAAAGCAGCAGCUCUAGAGUUCUUAAACCGCUUUGAAGAAGCCAAGCGAACCUAUGAGGAGGGCUUAAAACACGAGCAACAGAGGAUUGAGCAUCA` has a bound/input enrichment of 0.13 ratio.
For `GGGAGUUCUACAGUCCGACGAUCUCCCCUCUCGUGCCACCUCUGUCUCCUCUUCUUCCUCCUCUGUGUCCUUGUCCCUCUUCCUCUUUCUUUCCGUUUCCAAAGGAGCAAGCCAAAACCUCAAACCGGCGCCCCUUGGGGGCCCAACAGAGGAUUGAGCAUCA`, the bound/input enrichment was 0.629 ratio.
The bound/input enrichment of `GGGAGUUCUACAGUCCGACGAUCGCAGCUUUGAAAAAACACCAUGAAGAAGAAAUCGUUCAUCAUAAGAAGGAGAUUGAGCGUCUGCAGAAAGAAAUUGAGCGCCAUAAGCAGAAGAUCAAAAUGCUAAAACAUGAUGAUUAACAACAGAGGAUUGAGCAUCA` is reported as 0.332 ratio.
`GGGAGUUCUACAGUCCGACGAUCGAUGAGCAUUCUUAUUUUUUGUUUUGUUUGCCCCAUUUCCUUUUGUGUUUUUAUAGUCUAUAGCAUUUUAAAACUGCUGAUGUUGUUUGCAUUAUUUACAGGCUAAAAACUUAGUAGCAUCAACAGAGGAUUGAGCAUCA` gave a bound/input enrichment of 2.62 ratio.
With `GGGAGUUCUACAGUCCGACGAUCUGUUUCCUGAUCCAGCCGGAACCUGUGGUGGGUAGCAAGAUGCAUAAGGUGCAUGACCUGUUCACCCUCGGCAGCGGGGAAGCCAUGUUGCAGCUCAUCCCUCCCUUCCAGUGCCGAACACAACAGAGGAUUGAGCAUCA` the bound/input enrichment was 0.119 ratio.
With `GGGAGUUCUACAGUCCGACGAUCGUCCAGCGUAAGAGGGAGCUGUGGCCAAGAGAGAAGGAGGGUCAGCGCCAGGAGCUAGAAGAAUUUAAGCAGAAGAUCCGGAAGCAGAAAGAAGAGAGACUUCUUCAAGCUGCCCAGCAGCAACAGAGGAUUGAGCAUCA` the bound/input enrichment was 0.521 ratio.
With `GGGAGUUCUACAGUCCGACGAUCAAUACAUUUGUUCCAAUGGGGAGCUUGGAAGAUGGCGUUCCCAGAAAGUAUUUUAAUAUCAAUAGACCACAGCCAAAGCCUUAAAUCAAACCCACACACAACUGAAAAUUGCCUCCUCCACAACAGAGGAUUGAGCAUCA` the bound/input enrichment was 1.73 ratio.
`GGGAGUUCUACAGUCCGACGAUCCUUCCGGGAGGUGCUUGUGUGCCUGGUGCGGGAGCUACGGGGCCCAGGGAUUGUGUUUAAAGUAGUGCUUCUACCAACAUGUCCCGUGGUUCCAGCGCCGGUUUUGACCGCCACAUUACCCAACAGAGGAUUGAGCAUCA` has a bound/input enrichment of 0.102 ratio.
The bound/input enrichment of `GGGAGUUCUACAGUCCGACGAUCUGAAGGAGUCCCAGAAGCUGCACUAUGUUGUGACUGAAGUUCAAGGCCCCAGCAUUACCGUGGAGUUCUCUGAUUGCAAAGCUUCUCUCCAGCUUCCGAUGGAAAAGGCCAUUGAGACCGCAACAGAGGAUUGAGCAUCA` is reported as 0.0968 ratio.

Set 2 — method: DHFR PCA, deep sequencing; matrix: yeast; with: (+)-ABA 17 µM; reference: wild-type fitted maximum; direction: higher = stronger binding
Target: ABI1, truncated, D143A, DHFR fusion (Arabidopsis thaliana)
Setting: methotrexate growth selection, single substitutions
Parent: PYL1, truncated, DHFR fusion (Arabidopsis thaliana); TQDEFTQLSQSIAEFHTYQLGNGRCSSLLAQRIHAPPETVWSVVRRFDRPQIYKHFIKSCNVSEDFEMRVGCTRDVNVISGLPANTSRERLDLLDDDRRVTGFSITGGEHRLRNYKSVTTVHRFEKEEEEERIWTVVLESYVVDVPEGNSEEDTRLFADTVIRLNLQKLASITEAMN
`G108S`: “relative binding score” 3.28%.
Under “relative binding score”, `E129P` is recorded as 87.2%.
`T86P` — result for “relative binding score”: -8.03%.
`I162Y` — result for “relative binding score”: -1.99%.
Under “relative binding score”, `L91Q` is recorded as -12.3%.
Under “relative binding score”, `S80D` is recorded as -2.68%.
`G23W` — result for “relative binding score”: 27.9%.
Under “relative binding score”, `S42P` is recorded as 44.3%.
Under “relative binding score”, `L112D` is recorded as 5.07%.
For `D159E`, “relative binding score” read 71.6%.
`K168E`: “relative binding score” 37.7%.
`V142K` — result for “relative binding score”: 43.7%.
For `D96C`, “relative binding score” read 10%.
`P146Y`: “relative binding score” 4.46%.

Set 3 — method: RNA Bind-n-Seq; molecule type: RNA; matrix: in vitro; tested at: 365 nM; reference: no-protein control; direction: higher = stronger binding
Target: RNA binding protein fox-1 homolog 2, RRM domain, GST-SBP tag (RBFOX2, Homo sapiens, UniProt O43251-10, residues 100-194)
Setting: natural RNA segment, single round, ends assumed
Construct (chain): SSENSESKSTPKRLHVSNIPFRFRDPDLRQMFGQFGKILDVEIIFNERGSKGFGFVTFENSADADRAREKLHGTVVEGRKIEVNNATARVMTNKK
`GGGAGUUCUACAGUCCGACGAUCUGGAUCCCCCUACUGCUCCCAGGAAUUGGGCUCCUGACAGCAGUCUGCUACCACAACCCCAGGCGGGUGUCAACACCAGCAAAUGCUGUGUUUGCAGCAUGCCCAAGAUGUGGAAUUCUCGGGUGCCAA` — result for “RBNS enrichment (R)”: 0.526.
For `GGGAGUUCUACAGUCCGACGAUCGUCCUGCAUUUCCAUCAGGGUUUCCACAGUCAUCAGGGCUUCUCUCUUGAGUUGCUGAUAGGAGAUGUGAGUUAUGCCCAGAGAUGUCUUAUCGUGAGGAAAAAGAAACUUGGAAUUCUCGGGUGCCAA`, “RBNS enrichment (R)” read 0.32.
`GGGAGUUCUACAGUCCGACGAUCAAAAUGAUCCUGCAGCAGUUCUGGGCCCUAUGCCAUCCAUAAGGAUUCCUUGGGAUUCUGGUUUGGGGUGGUCAGUGCCCUCUGUGCUUUAUGGACACAAAACCAGAGCAUGGAAUUCUCGGGUGCCAA` — result for “RBNS enrichment (R)”: 0.446.
Under “RBNS enrichment (R)”, `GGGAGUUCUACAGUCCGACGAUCCUUGUAUCACAACUAAUUUCAGCUGAGAGUUCAGCCUUGGGAGAAAGCACACCAUGGUGGGAGAGGUGUGGCAGGCAUUGCUCGAGCAUCCUGGCUCUCCCAUGCCUCCCUGGAAUUCUCGGGUGCCAA` is recorded as 1.02.
`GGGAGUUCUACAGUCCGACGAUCACACCACCGGUUACUGGCUCCUGGAUGAGGGGGCCAGAGAGGAGUGAAUAACUUCCCAGACACUUAUCUCCAGGGCAGGGUGCCUUCCAGUAGCCAAGGGAAGCCUCCAGUGGAAUUCUCGGGUGCCAA` — result for “RBNS enrichment (R)”: 0.222.
`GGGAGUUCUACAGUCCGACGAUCUUUCUACUUCCCAUGAAGUAUAUAGGCUUACACUCAUCACCUCGUAAACAAGAACGGGCACAUUUCAGGUGGCUUAUUUUGUGGGGGAGGGUGCUGGAAGGGGUUGGUGGUGGAAUUCUCGGGUGCCAA` — result for “RBNS enrichment (R)”: 0.318.
Under “RBNS enrichment (R)”, `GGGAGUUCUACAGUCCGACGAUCAAGCUGGUAACUCCCUCCCAGCAUCCCUGCGGAAGGAGUCAGUUUCUGAGAGUGUGACUUUUCAAGGCGAAUGAUGGGGAAGGGUUCCCCAGUCCCCACAGUGGCCCCACUGGAAUUCUCGGGUGCCAA` is recorded as 0.909.
`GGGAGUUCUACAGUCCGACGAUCAUGAGUGCCAAUGUGUCAUUUAGUAAAACUUAAAUAGAAACAAGGUCCUUCAAAUGUUCCUUUGGCCAAAAGCUGAAGGGAGUUACUGAGAAAAUAGUUAACAAUUACUGUGGAAUUCUCGGGUGCCAA`: “RBNS enrichment (R)” 0.237.
Under “RBNS enrichment (R)”, `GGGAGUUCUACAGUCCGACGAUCUUUGUACAAUAUUUAACAAUCACUUAUCCAAGGUGGGGUUUUAUGGGGAUUUUAAGCUUUCUGUUAAAUACUUGCAGAAAAAAUAGCAAGUACGAUUUGACAGUAGUACAUGGAAUUCUCGGGUGCCAA` is recorded as 0.591.

Set 4 — target: CCND3, cyclin fold, Cln2 fusion (human); method: yeast growth competition, sequencing; matrix: yeast; setting: weak parent motif; reference: not given; direction: higher = stronger binding
Parent: HIRA docking peptide (human); SLSKRKLELEVET; partner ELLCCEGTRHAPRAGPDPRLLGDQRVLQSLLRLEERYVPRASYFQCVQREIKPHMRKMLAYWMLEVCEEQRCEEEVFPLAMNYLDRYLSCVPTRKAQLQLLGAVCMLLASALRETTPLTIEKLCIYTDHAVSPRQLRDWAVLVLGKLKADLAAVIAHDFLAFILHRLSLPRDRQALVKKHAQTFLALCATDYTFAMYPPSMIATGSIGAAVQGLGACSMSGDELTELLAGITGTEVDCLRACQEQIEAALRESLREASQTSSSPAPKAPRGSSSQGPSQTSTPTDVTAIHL
For `R5K`, “normalised enrichment score” read 0.0467.
`L2A` — result for “normalised enrichment score”: 0.109.
`S3A`: “normalised enrichment score” -0.0208.
For `R5A L7A`, “normalised enrichment score” read 0.123.
`R5A`: “normalised enrichment score” 0.0385.
For `T13A`, “normalised enrichment score” read 0.152.
Under “normalised enrichment score”, `L7A` is recorded as -0.035.
`V11A` — result for “normalised enrichment score”: 0.0419.
Under “normalised enrichment score”, `R5K L9F` is recorded as -0.0454.
Under “normalised enrichment score”, `E12A` is recorded as 0.0261.

A few entries again (set 4):
Under “normalised enrichment score”, `L7A` is recorded as -0.035.
`L2A` — result for “normalised enrichment score”: 0.109.
`S3A`: “normalised enrichment score” -0.0208.
For `T13A`, “normalised enrichment score” read 0.152.
`R5A`: “normalised enrichment score” 0.0385.
Under “normalised enrichment score”, `E12A` is recorded as 0.0261.
